Measurements collected from several papers.
Numbered parts are unrelated; each lists some results of a single study.

Sample 1 — method: protein binding microarray; form: double-stranded DNA, one strand shown; sample: in vitro; tested at: not given; baseline: not given; direction: higher = stronger binding
Target: Histone acetyltransferase KAT6A, winged helix 1, GST fusion (KAT6A, Homo sapiens, UniProt Q92794, residues 1-85)
Notes: 8-mer, flanks averaged, mean of 2 arrays, mostly near background
Construct (chain): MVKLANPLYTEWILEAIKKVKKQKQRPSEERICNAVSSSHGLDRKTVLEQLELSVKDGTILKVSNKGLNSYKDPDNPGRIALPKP
Strand | E-score
GACCCGAC | 0.201
CGGAGGTC | 0.0455
ACTGTCCC | 0.0186
GTCCAGCA | -0.313
ATTTCTAC | -0.145
AGACAGCT | -0.23

Sample 2 — method: protein-binding microarray; form: double-stranded DNA, one strand shown; sample: in vitro; tested at: 250 nM; notes: 60-bp whole probe; added: salmon DNA 0.4 mg/ml; baseline: random background probes; direction: higher = stronger binding
Target: Interferon regulatory factor 5, full length, phosphomimetic (IRF5, Homo sapiens, UniProt Q13568-2, residues 1-514, K96S/S451D/S453D/S456D/S462D)
Strand | log fluorescence
GCCTAGCACTTAGGACTGCCACTGCTTTAGTGCTAGGTCTTGATTCGCTTGACGCTGCTG | -0.513 z-score
GCCTAGCACCCAGCAGGGTTAGGCTTGCTGTGCTAGGTCTTGATTCGCTTGACGCTGCTG | -0.748 z-score
GCCTAGCACGACGGTATCATACTGCTGACGTGCTAGGTCTTGATTCGCTTGACGCTGCTG | 0.315 z-score

Sample 3 — method: aptamer microarray, sandwich; form: DNA with 2'F-ANA; sample: in vitro; tested at: 200 nM; added: Cy3 exosite-II aptamer, 400 nM; direction: higher = stronger binding; strand: GGTTGGTGTGGTTGG
Target: Prothrombin, mature alpha-thrombin (F2, Homo sapiens, UniProt P00734)
Notes: whole 15-mer aptamer, many near background
Modification | mean fluorescence intensity [a.u.]
2'F-ANA at 5 6 8 10 11 12 13 14 | 48.6
2'F-ANA at 1 2 3 4 5 7 8 9 10 11 13 14 15 | 55.2
2'F-ANA at 3 4 6 7 8 9 11 15 | 525
2'F-ANA at 3 5 9 10 12 13 14 | 54.6
2'F-ANA at 3 5 11 12 14 | 65.1
2'F-ANA at 2 7 8 10 11 12 13 14 | 83.7

Other studies, line by line
Substance | target | assay | system | setting | scale | quantity | value
PhoQ, residues 284 288 289 292 302 303 SSTLSG | PhoP, residues 12 14 15 18 19 QWHVF (Escherichia coli, UniProt P23836) | Sort-seq, refers to: YFP reporter | E. coli | PhoQ-PhoP variant library, added: 10 µM Mg2+ | baseline: high Mg2+ state, higher = stronger signaling | fold induction | 2.31

For quick reference, copied from above (sample 1):
Strand | E-score
CGGAGGTC | 0.0455
ACTGTCCC | 0.0186
GTCCAGCA | -0.313
